Measurements collected from several papers.
Protocols differ between the studies behind these lines. ± gives the spread as reported.
UniProt P37136, sequence (whole entry, looked up): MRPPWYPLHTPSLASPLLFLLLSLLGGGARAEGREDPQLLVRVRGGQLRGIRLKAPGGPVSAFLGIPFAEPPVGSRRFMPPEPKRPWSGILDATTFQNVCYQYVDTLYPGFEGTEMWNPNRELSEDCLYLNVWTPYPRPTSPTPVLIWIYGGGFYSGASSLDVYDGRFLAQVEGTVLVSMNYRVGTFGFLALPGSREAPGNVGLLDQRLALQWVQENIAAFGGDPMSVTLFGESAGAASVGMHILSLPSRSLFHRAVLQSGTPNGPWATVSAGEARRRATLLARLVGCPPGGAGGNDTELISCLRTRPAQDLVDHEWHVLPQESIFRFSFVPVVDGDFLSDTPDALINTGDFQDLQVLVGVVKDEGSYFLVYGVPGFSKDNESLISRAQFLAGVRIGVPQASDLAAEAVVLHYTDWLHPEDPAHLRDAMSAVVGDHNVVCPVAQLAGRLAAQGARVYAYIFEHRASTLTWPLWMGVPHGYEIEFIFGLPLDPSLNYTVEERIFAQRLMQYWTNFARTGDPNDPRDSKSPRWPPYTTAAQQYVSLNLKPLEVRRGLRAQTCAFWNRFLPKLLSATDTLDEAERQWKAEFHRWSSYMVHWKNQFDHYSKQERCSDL

Substance	target or system	assay	test system	conditions	measurement	value
chicoric acid		UPLC	broiler chicken, plasma	oral gavage, 20 mg/kg	CL/F	40.8 ± 13.9 L/h/kg
deucravacitinib			human	oral, 10 mg, single dose	Tmax	1.17 h
vorinostat glucuronide			patients, plasma	oral, 300 mg vorinostat three times daily, 3 days, with: idarubicin	Cmax	3.33 µM
phoxim-oxon	Ache (Rattus norvegicus, UniProt P37136)	enzyme activity, inhibitor, Ellman	rat, postnatal day 12, heart homogenate	15 min, 37 °C	IC50	0.012 µM
maraviroc			black CYP3A5 extensive metabolizers, plasma	300 mg twice daily	Cmax	0.529 µg/mL
semaglutide		refers to: serious adverse events	human, safety analysis set	concentration not given, 32 weeks, run-in	participants with adverse events	2.1%

Some of these lines once more:
Substance	target or system	assay	test system	conditions	measurement	value
deucravacitinib			human	oral, 10 mg, single dose	Tmax	1.17 h
